Assay results collected from several papers.
Lines come from different studies, so protocols differ. Numbers after ± are the reported error.

CCn1nc(Cl)c2c1-c1cnc(N)c(c1)O[C@H](C)c1cc(F)ccc1-c1nn(C)cc1C2 — IC50 ratio, median (45 ALK-driven cell lines; cell viability; reference: cpd over other ALK inhibitors): ~1.3 fold
O=Cc1c(O)ccc2ccccc12 — log2 fold change (HUVEC; RNA sequencing, refers to: DDIT3; 75 µM, 24 h; reference: DMSO): 3.69
Cc1ccc(C(C)C)cc1.[Cl-].[Cl][Ru+].[Ru+].c1ccc(-c2cn(CCCCOc3ccccc3-c3nc4ccccc4s3)nn2)nc1 — cells in phase (MCF7; PI flow cytometry, refers to: S phase; 8 µM, 24 h): 22.6%
COc1cc(CNC(=O)C[C@H](C)CCC=C(C)C)ccc1OCc1cn(-c2cccc([N+](=O)[O-])c2)nn1 — growth percent (UACC-62 melanoma cells; SRB; 10 µM, 48 h): 65.9%
COc1ccc([C@@H]2CC(=O)c3c(O)cc(O[C@@H]4O[C@H](CO[C@@H]5O[C@@H](C)[C@H](O)[C@@H](O)[C@H]5O)[C@@H](O)[C@H](O)[C@H]4O)cc3O2)cc1O — invasion (A549; Matrigel Transwell invasion; 50 µg/mL, 24 h): 52.8 ± 3.49%
COC(=O)N1c2ccc3c(nc(Cc4ccccc4)n3[C@@H]3CCC[C@@H](C(=O)O)C3)c2CC[C@@H]1C — SPDEF and AQP3 mRNA level (MDA-MB-453; qPCR; 0.156, 0.625, 2.5 µM, 24 h, with: R1881 10 nM): decreased
CCC(=C(c1ccc(Cl)cc1)c1ccc(OCCCN(C)C)cc1)c1ccc(OC)cc1 — GI50 (NCI-H226; cell growth or viability, SRB): 7.7 µM
COC(=O)[C@@H]1[C@@H](OC)[C@H](OC(=O)c2cc(OC)c(OC)c(OC)c2)C[C@@H]2CN3CC[C@]4(O[C@@H]3C(=O)[C@@H]21)C(=O)Nc1cc(OC)c(-c2ccc(C(F)(F)F)cc2)cc14 — late apoptotic cells (RS4;11; annexin V/PI flow cytometry; 5 µM, 72 h): 80.5 ± 10%
CC1=[N+]2N=C(c3ccccc3)[O][Pd-2]2([Cl])[O+]=C2Oc3ccccc3C=C21 (stereo not shown) — early apoptotic cells (HeLa; annexin V/PI flow cytometry; IC50, 24 h; reference: untreated): 23 fold
Cc1ccc(/C=C2\CCCC3C2=NN(C(=O)c2ccncc2)C3c2ccc(C)cc2)cc1 (stereo not shown) — membrane protection (human erythrocytes; HRBC membrane stabilization; concentration not given): 76.5%
COc1cc(CNC(=O)C[C@H](C)CCC=C(C)C)ccc1OCc1cn(-c2ccccc2)nn1 — growth percent (NCI-H460; SRB; 10 µM, 48 h): 97%
COc1ccc2c(c1)/C(=N\Nc1nnc3n1N=C(c1ccccc1)CS3)C(=O)N2 — inhibition (SNB-75; cell growth or viability, SRB; 10 µM): 17%
COc1ccc(NC(=O)COc2ccc(/C=C/C(C)=N/O)cc2OC)cc1 — IL-6 expressing cells (SH-SY5Y; flow cytometry; 20 µM, with: amyloid beta 10 µM): 23.2%
C#Cc1cccc(N(C(=O)CCl)C(C(=O)NC2CCCCC2)c2ccccn2)c1 (racemic) — off-target labelling onset (MDA-MB-435; click chemistry ABPP; concentration not given, 6 h): 1 µM
COc1cc2c(OC3OCC(OC)C(OC)C3OC(=O)c3ccc(Br)cc3)c3c(c(-c4ccc5c(c4)OCO5)c2cc1OC)C(=O)OC3 (stereo not shown) — protein level (FaDu; western blot, refers to: mature cathepsin D; 0.1, 1, 2 µM, 36 h, with: bafilomycin A1 0.1 µM; reference: DMSO): decreased
O=C(N1CCCC1)n1cc(-c2ccc(-c3ccccc3)cc2)nn1 — SILAC ratio (mouse T-cells; N-terminal labeled proteins, N-terminal enrichment proteomics, refers to: S100A4; 1 nM, 6 h; reference: DMSO): 1.05 ± 0.08
Cc1ccc(C(C)C)cc1.Cc1ncc(CO)c(C=NNC2=Nc3ccccc3-c3[nH]c4ccc(Br)cc4c3C2)c1O.[Cl-].[Cl][Ru+] — apoptotic cells (SW480; annexin V/PI flow cytometry; 20 µM, early plus late apoptosis): 61%
C=C1C(=O)OC2C=C(C)CCC=C(C(=O)OC(C)C(C)(O)C(=O)OC3C(OC(C)=O)C(C(=O)OC)=CCCC(C)=CC4OC(=O)C(=C)C43)CC(OC(=O)C(C)=CC)C12 (stereo not shown) — caspase-3/7 activity (HeLa; 3 µM, 24 h; reference: untreated): 4.27 fold
COc1cc(CNC(=O)C[C@H](C)CCC=C(C)C)ccc1OCc1cn(-c2ccc(Cl)cc2Cl)nn1 — growth percent (NCI-H460; SRB; 10 µM, 48 h): 75.1%
COc1cc2c(C=C3C(=O)Nc4ccccc43)c[nH]c2cc1C — TGI (renal cancer subpanel of NCI-60; 48 h): 6.92 µM
CC/C=C\C/C=C\C/C=C\C/C=C\C/C=C\C/C=C\CCC(=O)Nc1ccn(C2OC(CO)C(O)C2(F)F)c(=O)n1 (stereo not shown) — TGI (RPMI-8226; NCI60 screen): 26.9 µM
CC(=O)OC[C@H]1O[C@@H](Sc2sc(C(=O)c3ccc(Br)cc3)c(N)c2-c2nc3ccccc3s2)[C@H](OC(C)=O)[C@@H](OC(C)=O)[C@H]1OC(C)=O — growth (RPMI-8226; SRB; 10 µM, 48 h): 65.5%
COc1cc(CNC(=O)C[C@H](C)CCC=C(C)C)ccc1OCc1cn(-c2ccc(Br)cc2)nn1 — growth percent (NCI-H226; SRB; 10 µM, 48 h): 70.2%
O=C(O)CCC(NP(=O)(O)OCCC[C@@H](NC(=O)CC[C@H](NC(=O)CCCCCNC(=O)c1ccc([18F])cc1)C(=O)O)C(=O)O)C(=O)O (stereo partly shown) — uptake ratio (LNCaP, CWR22Rv1; concentration not given, 1 h; reference: LNCaP over CWR22Rv1): 9.8 fold
O=C(O)c1ccc(/C=C2\SC(=S)N(Cc3cccc(C(F)(F)F)c3)C2=O)cc1 — chloride efflux (LPS-primed Nlrp3-/- mouse BMDM; concentration not given, with: nigericin): no effect
CO[C@H]1N(OC)c2ccccc2[C@@]12CN=C(Nc1cc(C(F)(F)F)cc(C(F)(F)F)c1)S2 (relative stereo) — G0/G1 phase cells (HCT-116; PI flow cytometry; 40 µM, 48 h): 35.6 ± 3.22%
C[C@H](CC(=O)C[C@@H](C)[C@H]1C[C@H](O)[C@@]2(C)C3=C(C(=O)C[C@]12C)[C@@]1(C)CCC(=O)C(C)(C)[C@@H]1C[C@@H]3O)C(=O)O — glucose consumption (3T3-L1 adipocytes; 25 µg/mL): 11.9 ± 0.63 mmol/L
COc1ccc2c3c(oc2c1CC=C(C)C)-c1cc(CC=C(C)C)c(O)cc1OC3 — glucose consumption (3T3-L1 adipocytes; activator; up to 100 µM): inactive
CCCCCCCCCCCCCC[C@@H](O)[C@@H](O)[C@H](CO[C@H]1O[C@H](CO)[C@H](O)[C@H](O)[C@H]1O)NC(=O)CCCCCCCCc1ccccc1 — IFN-γ/IL-4 ratio (human Vα24+ NKT cells; concentration not given, HeLa-CD1d co-culture; reference: α-GalCer): 2.17 ± 0.24
COc1cc(CNC(=O)C[C@H](C)CCC=C(C)C)ccc1OCc1cn(-c2ccccc2[N+](=O)[O-])nn1 — growth percent (UACC-62 melanoma cells; SRB; 10 µM, 48 h): 48%
Cc1ccc(NC(=O)c2c(C)oc3ccc(O)c(CN4CCCCCC4)c23)cc1 — MYC exon 2 transcription (CA46; exon-specific qPCR; 10 µM, up to 48 h): no effect
O=C1C(=NN=c2[nH]ccs2)c2cc(Cl)ccc2N1CCn1ncc2c(=O)[nH]cnc21 — selectivity ratio (BALB/3T3 and A498; cell growth; reference: IC50 BALB/3T3 over A498): 0.79
Cc1cc([C@H](C(=O)N2C[C@H](O)C[C@H]2C(=O)N[C@@H](CC(=O)N2CCC(N3CCC(C#Cc4ccc(C(=O)N[C@H]5C(C)(C)[C@H](Oc6ccc(C#N)c(Cl)c6)C5(C)C)cc4)CC3)CC2)c2ccc(-c3scnc3C)cc2)C(C)C)on1 — effective concentration (MDA-MB-453; complete restoration of decrease, refers to: CDKN1A; 24 h): 1000 nM
C[n+]1c(/C=C/c2ccc(N(c3ccccc3)c3ccccc3)cc2)cc(/C=C2\Sc3ccccc3N2CCCN2CCCC2)c2ccccc21 — IC50 ratio (CA46; 36 h; reference: CA46 over Raji): ~3 fold

Some of these lines once more:
CCn1nc(Cl)c2c1-c1cnc(N)c(c1)O[C@H](C)c1cc(F)ccc1-c1nn(C)cc1C2 — IC50 ratio, median (45 ALK-driven cell lines; cell viability; reference: cpd over other ALK inhibitors): ~1.3 fold
COc1ccc(NC(=O)COc2ccc(/C=C/C(C)=N/O)cc2OC)cc1 — IL-6 expressing cells (SH-SY5Y; flow cytometry; 20 µM, with: amyloid beta 10 µM): 23.2%
COc1cc(CNC(=O)C[C@H](C)CCC=C(C)C)ccc1OCc1cn(-c2cccc([N+](=O)[O-])c2)nn1 — growth percent (UACC-62 melanoma cells; SRB; 10 µM, 48 h): 65.9%
